Measured values gathered from unrelated publications.
Every numbered part comes from another study and shows a few of its results, in no order. Values joined by “and” are separate records of one study, mostly repeats; a detail may differ.
Sequence of UniProt Q86Z02 (whole entry, looked up): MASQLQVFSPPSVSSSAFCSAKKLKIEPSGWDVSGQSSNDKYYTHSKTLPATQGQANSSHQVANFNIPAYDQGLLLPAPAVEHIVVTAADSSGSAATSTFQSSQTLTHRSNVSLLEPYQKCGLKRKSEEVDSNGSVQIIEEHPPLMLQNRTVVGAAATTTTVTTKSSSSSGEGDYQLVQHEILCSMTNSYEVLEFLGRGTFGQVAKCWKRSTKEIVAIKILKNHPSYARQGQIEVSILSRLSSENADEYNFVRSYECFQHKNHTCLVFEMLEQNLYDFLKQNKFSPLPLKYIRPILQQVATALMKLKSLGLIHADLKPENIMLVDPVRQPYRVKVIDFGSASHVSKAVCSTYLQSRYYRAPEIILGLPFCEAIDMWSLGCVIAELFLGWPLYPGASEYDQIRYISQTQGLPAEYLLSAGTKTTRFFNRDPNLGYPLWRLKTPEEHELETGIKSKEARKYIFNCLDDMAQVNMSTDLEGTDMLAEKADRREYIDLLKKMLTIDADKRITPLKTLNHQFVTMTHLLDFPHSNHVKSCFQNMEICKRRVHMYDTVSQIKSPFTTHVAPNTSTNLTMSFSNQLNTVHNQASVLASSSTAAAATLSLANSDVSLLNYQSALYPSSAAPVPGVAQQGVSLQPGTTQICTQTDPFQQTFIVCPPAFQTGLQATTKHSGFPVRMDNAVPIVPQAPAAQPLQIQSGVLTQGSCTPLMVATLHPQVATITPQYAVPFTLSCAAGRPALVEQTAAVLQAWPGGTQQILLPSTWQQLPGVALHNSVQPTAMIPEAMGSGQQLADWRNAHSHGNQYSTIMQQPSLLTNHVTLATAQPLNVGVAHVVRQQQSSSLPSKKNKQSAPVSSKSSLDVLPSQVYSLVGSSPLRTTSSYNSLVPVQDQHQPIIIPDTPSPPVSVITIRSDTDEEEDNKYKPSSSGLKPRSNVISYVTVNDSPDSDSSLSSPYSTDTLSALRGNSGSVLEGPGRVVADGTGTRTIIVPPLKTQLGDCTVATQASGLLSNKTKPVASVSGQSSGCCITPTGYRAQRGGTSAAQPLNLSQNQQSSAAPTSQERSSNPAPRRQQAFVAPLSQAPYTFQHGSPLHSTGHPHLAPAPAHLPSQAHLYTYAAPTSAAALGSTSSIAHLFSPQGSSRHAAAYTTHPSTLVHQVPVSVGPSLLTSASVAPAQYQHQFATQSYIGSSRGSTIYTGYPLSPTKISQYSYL
Sequence of UniProt P27448 (whole entry, looked up): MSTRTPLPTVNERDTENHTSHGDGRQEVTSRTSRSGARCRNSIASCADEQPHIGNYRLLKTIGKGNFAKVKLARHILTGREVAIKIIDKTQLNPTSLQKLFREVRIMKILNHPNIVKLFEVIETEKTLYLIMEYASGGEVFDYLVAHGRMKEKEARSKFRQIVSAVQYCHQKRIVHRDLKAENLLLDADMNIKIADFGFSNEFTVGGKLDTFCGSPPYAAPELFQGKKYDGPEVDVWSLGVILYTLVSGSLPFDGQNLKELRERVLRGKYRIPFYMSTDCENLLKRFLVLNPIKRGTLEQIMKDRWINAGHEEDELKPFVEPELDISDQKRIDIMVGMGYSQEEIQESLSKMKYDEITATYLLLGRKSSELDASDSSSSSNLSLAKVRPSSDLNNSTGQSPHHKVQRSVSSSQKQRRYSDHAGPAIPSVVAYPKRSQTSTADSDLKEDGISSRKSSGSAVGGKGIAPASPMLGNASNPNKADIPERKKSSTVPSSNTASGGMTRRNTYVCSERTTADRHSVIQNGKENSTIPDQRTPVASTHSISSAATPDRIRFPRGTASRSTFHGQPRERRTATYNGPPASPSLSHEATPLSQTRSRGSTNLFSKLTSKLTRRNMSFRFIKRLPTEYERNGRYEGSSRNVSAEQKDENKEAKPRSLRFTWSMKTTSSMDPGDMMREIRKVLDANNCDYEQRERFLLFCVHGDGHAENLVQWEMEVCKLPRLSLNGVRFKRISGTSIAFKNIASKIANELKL
Sequence of UniProt Q16512 (whole entry, looked up): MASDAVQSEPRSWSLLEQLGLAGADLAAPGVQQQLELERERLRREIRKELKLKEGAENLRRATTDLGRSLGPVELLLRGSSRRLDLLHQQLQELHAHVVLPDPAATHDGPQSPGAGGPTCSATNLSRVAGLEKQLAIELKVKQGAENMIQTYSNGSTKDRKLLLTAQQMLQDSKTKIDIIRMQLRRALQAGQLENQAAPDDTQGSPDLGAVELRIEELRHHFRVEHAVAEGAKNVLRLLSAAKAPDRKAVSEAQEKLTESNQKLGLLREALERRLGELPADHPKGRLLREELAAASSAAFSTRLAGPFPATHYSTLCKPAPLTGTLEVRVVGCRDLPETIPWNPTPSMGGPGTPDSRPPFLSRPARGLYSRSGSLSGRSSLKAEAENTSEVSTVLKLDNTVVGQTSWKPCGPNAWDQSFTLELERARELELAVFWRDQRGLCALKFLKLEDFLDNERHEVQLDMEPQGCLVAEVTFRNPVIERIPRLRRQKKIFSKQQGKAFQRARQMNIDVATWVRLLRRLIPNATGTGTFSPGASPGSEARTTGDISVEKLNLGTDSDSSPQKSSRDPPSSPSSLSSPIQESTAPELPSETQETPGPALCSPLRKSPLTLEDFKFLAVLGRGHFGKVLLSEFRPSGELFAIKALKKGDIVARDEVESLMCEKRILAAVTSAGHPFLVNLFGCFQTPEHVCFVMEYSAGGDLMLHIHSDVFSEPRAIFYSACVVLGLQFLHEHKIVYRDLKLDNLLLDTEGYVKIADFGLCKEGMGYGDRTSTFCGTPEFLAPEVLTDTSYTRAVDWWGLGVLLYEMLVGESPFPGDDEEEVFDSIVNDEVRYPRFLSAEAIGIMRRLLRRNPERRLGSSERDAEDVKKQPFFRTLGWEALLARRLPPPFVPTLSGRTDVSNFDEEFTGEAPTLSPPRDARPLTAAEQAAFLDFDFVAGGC
Sequence of UniProt P28566 (whole entry, looked up): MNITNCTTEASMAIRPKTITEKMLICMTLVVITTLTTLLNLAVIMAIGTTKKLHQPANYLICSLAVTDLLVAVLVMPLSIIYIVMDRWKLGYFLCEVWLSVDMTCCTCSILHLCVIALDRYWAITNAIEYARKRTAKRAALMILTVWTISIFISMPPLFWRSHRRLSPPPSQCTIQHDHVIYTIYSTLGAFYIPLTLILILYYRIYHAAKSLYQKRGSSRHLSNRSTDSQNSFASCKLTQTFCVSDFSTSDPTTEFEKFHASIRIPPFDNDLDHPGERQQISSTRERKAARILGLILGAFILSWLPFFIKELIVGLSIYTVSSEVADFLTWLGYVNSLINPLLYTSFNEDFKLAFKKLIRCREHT
Sequence of UniProt P61075 (whole entry, looked up): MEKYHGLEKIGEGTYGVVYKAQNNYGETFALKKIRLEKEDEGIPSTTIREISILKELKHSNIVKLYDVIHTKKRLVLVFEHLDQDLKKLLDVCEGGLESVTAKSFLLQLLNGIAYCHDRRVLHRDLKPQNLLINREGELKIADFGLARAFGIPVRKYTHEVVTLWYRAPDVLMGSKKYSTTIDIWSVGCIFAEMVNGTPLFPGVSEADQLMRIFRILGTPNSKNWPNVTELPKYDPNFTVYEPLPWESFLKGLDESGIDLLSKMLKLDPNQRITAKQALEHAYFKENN

Study 1
SMILES: CC(=O)N[C@@H](Cc1c[nH]c2ccccc12)C(=O)N[C@@H](CCC(=O)C=[N+]=[N-])C(=O)OC(C)C
It gave 100% and 96.6% and 105% for body weight (C57BL/6 CES1-/- mouse, both sexes; 0.1 mg/kg, day 9).
C57BL/6 CES1-/- mouse, EL4 tumour; intravenous, 1 mg/kg DON equivalent, treatment day 9, 5 days per week; reference: baseline — body weight: 93% and 96% and 97% and 100% and 105% and 104%.
C57BL/6 CES1-/- mouse, both sexes; 0.1 mg/kg, day 15 — body weight: 96.2% and 100% and 104% and 105% and 96.6% and 114%.
For C57BL/6 CES1-/- mouse, EL4 tumour; intravenous, 1 mg/kg DON equivalent, treatment day 8, 5 days per week; reference: baseline: body weight read 105% and 96% and 100% and 104% and 93%.
The body weight was 100% and 104% and 95.5% (C57BL/6 CES1-/- mouse, both sexes; 0.1 mg/kg, day 8).

Study 2
SMILES: CN[C@@H]1C[C@H]2O[C@@](C)([C@@H]1OC)n1c3ccccc3c3c4c(c5c6ccccc6n2c5c31)C(=O)NC4
Effect on: enzyme activity
Action: inhibitor
Tested at: 0.5 µM
Reference: control
MARK3 (Homo sapiens, UniProt P27448) — remaining activity: 0.716% and 4.76%.
The remaining activity was 0.148% and 1.37% (PKN1 (Homo sapiens, UniProt Q16512)).
It gave 96.5% and 101% for remaining activity (HIPK1 (Homo sapiens, UniProt Q86Z02)).

Study 3
Cell line: HaCaT
Tested at: 100 µM
Time: 36 h
With `CC(C)(C)NCC(O)c1ccccc1Cl` (stereo not shown) the viability was 70.1%.
`C#C[C@]1(O)CC[C@H]2[C@@H]3CCC4=CC(=O)CC[C@]4(C)[C@H]3CC[C@@]21C` gave a viability of 61.7%.
`c1ccc(NNc2ccccc2)cc1` has a viability of 62.9%.
`C=CC[C@]1(O)CC[C@H]2[C@@H]3CCC4=CCCC[C@@H]4[C@H]3CC[C@@]21C` has a viability of 7.24%.
The viability of `CCOC(=O)CC(SP(=S)(OC)OC)C(=O)OCC` (stereo not shown) is reported as 40.6%.
For `CCNCC(O)c1cccc(O)c1` (stereo not shown), the viability was 88.6%.

Single results of other studies
`CNC(=N)NCCC[C@H](NC(=O)[C@H](CC(C)C)NC(=O)NNC(=O)[C@H](Cc1ccccc1)NC(=O)[C@H](CO)NC(=O)[C@H](CC(N)=O)NC(=O)[C@@H](Cc1cccnc1)NC(=O)[C@H](N)Cc1ccc(O)cc1)C(=O)NCC(N)=O` has an inhibition of 27.9% (HTR1E (Homo sapiens, UniProt P28566); ligand displacement, radioligand; 10 µM).
`O=C(O)c1cc(-c2ccc(C3CCNCC3)cc2)c2ccc(-c3ccc(C(F)(F)F)cc3)cc2c1` gave a remaining binding of 100% (CRK2 (Plasmodium falciparum, UniProt P61075); cell-free assay, competition with immobilised ligand; 1 µM).

Excerpt of the above (study 1):
C57BL/6 CES1-/- mouse, EL4 tumour; intravenous, 1 mg/kg DON equivalent, treatment day 9, 5 days per week; reference: baseline — body weight: 93% and 96% and 97% and 100% and 105% and 104%.
